Published values collected from several papers.
Protocols differ between the studies behind these lines. Values joined by “and” are separate records of one study, mostly repeats; a detail may differ. ± marks the error that the study gave. Primed or numbered codes have the meaning given here. No end group written: not given here.
B1: RbgA 1-282 (Bacillus subtilis, UniProt O31743); chain MTIQWFPGHMAKARREVTEKLKLIDIVYELVDARIPMSSRNPMIEDILKNKPRIMLLNKADKADAAVTQQWKEHFENQGIRSLSINSVNGQGLNQIVPASKEILQEKFDRMRAKGVKPRAIRALIIGIPNVGKSTLINRLAKKNIAKTGDRPGITTSQQWVKVGKELELLDTPGILWPKFEDELVGLRLAVTGAIKDSIINLQDVAVFGLRFLEEHYPERLKERYGLDEIPEDIAELFDAIGEKRGCLMSGGLINYDKTTEVIIRDIRTEKFGRLSFEQPTM
B2: rpn10 (Schizosaccharomyces pombe, UniProt O94444); sequence looked up; chain MVLEATMILIDNSEWMINGDYIPTRFEAQKDTVHMIFNQKINDNPENMCGLMTIGDNSPQVLSTLTRDYGKFLSAMHDLPVRGNAKFGDGIQIAQLALKHRENKIQRQRIVAFVGSPIVEDEKNLIRLAKRMKKNNVAIDIIHIGELQNESALQHFIDAANSSDSCHLVSIPPSPQLLSDLVNQSPIGQGVVASQNQFEYGVDPNLDVELALALELSMAEERARQEVAAQKSSEETEDKKMQE
B3: PLG Glu-plasminogen, mature; chain EPLDDYVNTQGASLFSVTKKQLGAGSIEECAAKCEEDEEFTCRAFQYHSKEQQCVIMAENRKSSIIIRMRDVVLFEKKVYLSECKTGNGKNYRGTMSKTKNGITCQKWSSTSPHRPRFSPATHPSEGLEENYCRNPDNDPQGPWCYTTDPEKRYDYCDILECEEECMHCSGENYDGKISKTMSGLECQAWDSQSPHAHGYIPSKFPNKNLKKNYCRNPDRELRPWCFTTDPNKRWELCDIPRCTTPPPSSGPTYQCLKGTGENYRGNVAVTVSGHTCQHWSAQTPHTHNRTPENFPCKNLDENYCRNPDGKRAPWCHTTNSQVRWEYCKIPSCDSSPVSTEQLAPTAPPELTPVVQDCYHGDGQSYRGTSSTTTTGKKCQSWSSMTPHRHQKTPENYPNAGLTMNYCRNPDADKGPWCFTTDPSVRWEYCNLKKCSGTEASVVAPPPVVLLPDVETPSEEDCMFGNGKGYRGKRATTVTGTPCQDWAAQEPHRHSIFTPETNPRAGLEKNYCRNPDGDVGGPWCYTTNPRKLYDYCDVPQCAAPSFDCGKPQVEPKKCPGRVVGGCVAHPHSWPWQVSLRTRFGMHFCGGTLISPEWVLTAAHCLEKSPRPSSYKVILGAHQEVNLEPHVQEIEVSRLFLEPTRKDIALLKLSSPAVITDKVIPACLPSPNYVVADRTECFITGWGETQGTFGAGLLKEAQLPVIENKVCNRYEFLNGRVQSTELCAGHLAGGTDSCQGDSGGPLVCFEKDKYILQGVTSWGLGCARPNKPGVYVRVSRFVTWIEGVMRNN
B4: metQ mature N229A (Escherichia coli, UniProt P28635); fluorescein label Cys23; sequence looked up; chain CGQDEKDPNHIKVGVIVGAEQQVAEVAQKVAKDKYGLDVELVTFNDYVLPNEALSKGDIDANAFQHKPYLDQQLKDRGYKLVAVGNTFVYPIAGYSKKIKSLDELQDGSQVAVPNDPTNLGRSLLLLQKVGLIKLKDGVGLLPTVLDVVENPKNLKIVELEAPQLPRSLDDAQIALAVINTTYASQIGLTPAKDGIFVEDKESPYVALIVTREDNKDAENVKKFVQAYQSDEVYEAANKVFNGGAVKGW
B5: Reln 1948-2662 (Mus musculus, UniProt Q60841); chain DGNNLNNPVLLLDTFDFGPREDNWFFYPGGNIGLYCPYSSKGAPEEDSAMVFVSNEVGEHSITTRDLSVNENTIIQFEINVGCSTDSSSADPVRLEFSRDFGATWHLLLPLCYHSSSLVSSLCSTEHHPSSTYYAGTTQGWRREVVHFGKLHLCGSVRFRWYQGFYPAGSQPVTWAIDNVYIGPQCEEMCYGHGSCINGTKCICDPGYSGPTCKISTKNPDFLKDDFEGQLESDRFLLMSGGKPSRKCGILSSGNNLFFNEDGLRMLVTRDLDLSHARFVQFFMRLGCGKGVPDPRSQPVLLQYSLNGGLSWSLLQEFLFSNSSNVGRYIALEMPLKARSGSTRLRWWQPSENGHFYSPWVIDQILIGGNISGNTVLEDDFSTLDSRKWLLHPGGTKMPVCGSTGDALVFIEKASTRYVVTTDIAVNEDSFLQIDFAASCSVTDSCYAIELEYSVDLGLSWHPLVRDCLPTNVECSRYHLQRILVSDTFNKWTRITLPLPSYTRSQATRFRWHQPAPFDKQQTWAIDNVYIGDGCLDMCSGHGRCVQGSCVCDEQWGGLYCDEPETSLPTQLKDNFNRAPSNQNWLTVSGGKLSTVCGAVASGLALHFSGGCSRLLVTVDLNLTNAEFIQFYFMYGCLITPSNRNQGVLLEYSVNGGITWNLLMEIFYDQYSKPGFVNILLPPDAKEIATRFRWWQPRHDGLDQNDWAIDNVLIS
B6: Sema6A ectodomain , Fc fusion 19-571 (Mus musculus, UniProt O35464); chain GFPEDSEPISISHGNYTKQYPVFVGHKPGRNTTQRHRLDIQMIMIMNRTLYVAARDHIYTVDIDTSHTEEIYCSKKLTWKSRQADVDTCRMKGKHKDECHNFIKVLLKKNDDTLFVCGTNAFNPSCRNYRVDTLETFGDEFSGMARCPYDAKHANIALFADGKLYSATVTDFLAIDAVIYRSLGDSPTLRTVKHDSKWLKEPYFVQAVDYGDYIYFFFREIAVEYNTMGKVVFPRVAQVCKNDMGGSQRVLEKQWTSFLKARLNCSVPGDSHFYFNILQAVTDVIRINGRDVVLATFSTPYNSIPGSAVCAYDMLDIANVFTGRFKEQKSPDSTWTPVPDERVPKPRPGCCAGSSSLEKYATSNEFPDDTLNFIKTHPLMDEAVPSIINRPWFLRTMVRYRLTKIAVDNAAGPYQNHTVVFLGSEKGIILKFLARIGSSGFLNGSLFLEEMNVYNPEKCSYDGVEDKRIMGMQLDRASGSLYVAFSTCVIKVPLGRCERHGKCKKTCIASRDPYCGWVRESGSCAHLSPLSRLTFEQDIERGNTDGLGDCHNS
B7: SPT5 residues 801-898 (Schizosaccharomyces pombe, UniProt O13936); chain SLISTADGPNVPNWAQGARTPAVANGSRTPAWNTGSRTPAWNSGSKTPAWNSGSRTPAWNSGNKTPAWNAGSRTPAWNSGNKTPAWNVGNKTPAWNSGAK
B8: metQ residues 17-271 N229A (Escherichia coli); chain SLALVGCGQDEKDPNHIKVGVIVGAEQQVAEVAQKVAKDKYGLDVELVTFNDYVLPNEALSKGDIDANAFQHKPYLDQQLKDRGYKLVAVGNTFVYPIAGYSKKIKSLDELQDGSQVAVPNDPTNLGRSLLLLQKVGLIKLKDGVGLLPTVLDVVENPKNLKIVELEAPQLPRSLDDAQIALAVINTTYASQIGLTPAKDGIFVEDKESPYVALIVTREDNKDAENVKKFVQAYQSDEVYEAANKVFNGGAVKGW
B9: CR2 21-154 (Homo sapiens, UniProt P20023); sequence looked up; chain ISCGSPPPILNGRISYYSTPIAVGTVIRYSCSGTFRLIGEKSLLCITKDKVDGTWDKPAPKCEYFNKYSSCPEPIVPGGYKIRGSTPYRHGDSVTFACKTNFSMNGNKSVWCQANNMWGPTRLPTCVSVFPLEC
B10: Fermt2 F0 1-97 (Mus musculus, UniProt Q8CIB5); Atto520 label; sequence looked up; chain MALDGIRMPDGCYADGTWELSVHVTDLNRDVTLRVTGEVHIGGVMLKLVEKLDVKKDWSDHALWWEKKRTWLLKTHWTLDKCGIQADAKLQFTPQHK
Sequence of UniProt P50524 (whole entry, unmodified, looked up): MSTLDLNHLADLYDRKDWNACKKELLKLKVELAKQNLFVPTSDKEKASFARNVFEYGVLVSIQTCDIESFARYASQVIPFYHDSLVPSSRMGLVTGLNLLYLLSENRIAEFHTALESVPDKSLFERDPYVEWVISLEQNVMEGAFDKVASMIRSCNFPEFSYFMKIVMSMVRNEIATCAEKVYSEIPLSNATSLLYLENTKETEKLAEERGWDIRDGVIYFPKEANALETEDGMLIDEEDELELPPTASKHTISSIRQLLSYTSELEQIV
Sequence of UniProt P70207 (whole entry, unmodified, looked up): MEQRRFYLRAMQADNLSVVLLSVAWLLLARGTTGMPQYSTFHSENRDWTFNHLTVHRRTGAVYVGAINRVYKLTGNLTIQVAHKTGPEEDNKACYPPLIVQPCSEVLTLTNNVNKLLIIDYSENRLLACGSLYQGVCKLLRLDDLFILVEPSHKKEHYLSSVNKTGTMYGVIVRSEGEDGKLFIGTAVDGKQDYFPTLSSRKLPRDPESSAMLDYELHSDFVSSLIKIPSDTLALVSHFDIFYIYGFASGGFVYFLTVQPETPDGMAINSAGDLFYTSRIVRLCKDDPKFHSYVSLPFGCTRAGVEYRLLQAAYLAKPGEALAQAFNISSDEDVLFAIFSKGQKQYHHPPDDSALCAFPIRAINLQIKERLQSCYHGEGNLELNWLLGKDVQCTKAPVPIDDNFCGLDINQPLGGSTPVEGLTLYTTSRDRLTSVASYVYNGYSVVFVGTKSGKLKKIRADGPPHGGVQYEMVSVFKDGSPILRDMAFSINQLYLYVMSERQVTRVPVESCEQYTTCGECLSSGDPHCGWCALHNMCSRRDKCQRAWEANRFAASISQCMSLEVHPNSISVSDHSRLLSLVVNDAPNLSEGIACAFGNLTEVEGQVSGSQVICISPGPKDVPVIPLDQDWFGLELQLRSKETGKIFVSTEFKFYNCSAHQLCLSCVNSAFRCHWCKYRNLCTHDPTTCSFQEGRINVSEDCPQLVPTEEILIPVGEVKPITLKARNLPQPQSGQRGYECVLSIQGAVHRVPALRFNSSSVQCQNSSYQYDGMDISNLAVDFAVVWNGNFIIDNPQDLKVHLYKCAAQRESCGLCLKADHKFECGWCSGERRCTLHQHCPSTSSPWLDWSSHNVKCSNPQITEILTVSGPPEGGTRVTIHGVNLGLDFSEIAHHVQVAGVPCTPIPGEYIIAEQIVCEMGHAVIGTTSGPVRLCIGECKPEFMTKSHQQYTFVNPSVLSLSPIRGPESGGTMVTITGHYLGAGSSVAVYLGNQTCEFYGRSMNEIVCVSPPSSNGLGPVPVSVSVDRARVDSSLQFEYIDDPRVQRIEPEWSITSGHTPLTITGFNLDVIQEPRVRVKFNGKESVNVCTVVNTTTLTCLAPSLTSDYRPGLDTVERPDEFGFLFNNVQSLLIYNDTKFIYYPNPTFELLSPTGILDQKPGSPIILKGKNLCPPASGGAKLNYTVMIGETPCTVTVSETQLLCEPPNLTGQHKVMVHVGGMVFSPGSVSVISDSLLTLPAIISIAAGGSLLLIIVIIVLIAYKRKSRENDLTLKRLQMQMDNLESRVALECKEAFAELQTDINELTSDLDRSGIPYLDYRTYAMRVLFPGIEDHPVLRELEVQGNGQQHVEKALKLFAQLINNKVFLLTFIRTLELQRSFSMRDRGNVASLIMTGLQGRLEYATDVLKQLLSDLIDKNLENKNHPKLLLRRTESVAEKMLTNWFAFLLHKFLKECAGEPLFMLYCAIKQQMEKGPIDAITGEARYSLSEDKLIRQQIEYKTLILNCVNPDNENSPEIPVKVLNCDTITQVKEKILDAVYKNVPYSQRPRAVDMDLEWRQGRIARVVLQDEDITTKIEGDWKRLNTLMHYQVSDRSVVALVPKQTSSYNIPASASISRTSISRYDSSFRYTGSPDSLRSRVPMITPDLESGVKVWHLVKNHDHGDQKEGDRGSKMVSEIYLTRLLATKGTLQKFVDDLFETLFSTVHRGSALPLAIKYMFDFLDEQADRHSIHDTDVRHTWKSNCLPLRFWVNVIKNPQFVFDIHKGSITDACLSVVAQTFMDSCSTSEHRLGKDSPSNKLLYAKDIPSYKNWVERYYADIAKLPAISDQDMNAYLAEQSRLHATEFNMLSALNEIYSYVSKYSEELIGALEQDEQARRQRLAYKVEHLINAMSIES
Sequence of UniProt O60656 (whole entry, looked up): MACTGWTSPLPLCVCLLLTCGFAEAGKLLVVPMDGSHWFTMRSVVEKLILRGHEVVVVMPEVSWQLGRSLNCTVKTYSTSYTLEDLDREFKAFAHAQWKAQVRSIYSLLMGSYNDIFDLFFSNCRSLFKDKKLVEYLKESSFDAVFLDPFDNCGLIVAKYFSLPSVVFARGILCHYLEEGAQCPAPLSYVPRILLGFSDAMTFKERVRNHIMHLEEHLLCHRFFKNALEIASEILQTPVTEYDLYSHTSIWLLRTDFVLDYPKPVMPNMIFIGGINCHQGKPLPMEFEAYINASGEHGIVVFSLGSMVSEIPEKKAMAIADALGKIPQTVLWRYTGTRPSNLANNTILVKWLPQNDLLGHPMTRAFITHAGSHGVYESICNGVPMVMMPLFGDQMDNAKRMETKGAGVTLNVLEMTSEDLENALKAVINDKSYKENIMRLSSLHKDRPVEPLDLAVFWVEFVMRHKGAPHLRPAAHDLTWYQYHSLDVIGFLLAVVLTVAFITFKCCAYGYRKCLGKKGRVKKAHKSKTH
Sequence of UniProt P26447 (whole entry, looked up): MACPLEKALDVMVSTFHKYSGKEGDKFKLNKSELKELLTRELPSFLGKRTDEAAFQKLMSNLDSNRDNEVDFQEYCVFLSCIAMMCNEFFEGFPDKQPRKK
Sequence of UniProt P02749 (whole entry, looked up): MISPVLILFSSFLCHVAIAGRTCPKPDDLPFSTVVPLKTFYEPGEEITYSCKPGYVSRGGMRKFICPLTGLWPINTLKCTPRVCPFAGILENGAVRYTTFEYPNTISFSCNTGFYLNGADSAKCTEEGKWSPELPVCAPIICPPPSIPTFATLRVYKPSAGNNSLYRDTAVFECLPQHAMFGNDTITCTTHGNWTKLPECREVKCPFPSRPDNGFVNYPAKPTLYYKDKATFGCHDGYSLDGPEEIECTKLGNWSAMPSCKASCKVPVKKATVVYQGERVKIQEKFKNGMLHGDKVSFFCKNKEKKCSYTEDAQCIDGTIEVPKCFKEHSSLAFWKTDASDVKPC
Sequence of UniProt P06734 (whole entry, looked up): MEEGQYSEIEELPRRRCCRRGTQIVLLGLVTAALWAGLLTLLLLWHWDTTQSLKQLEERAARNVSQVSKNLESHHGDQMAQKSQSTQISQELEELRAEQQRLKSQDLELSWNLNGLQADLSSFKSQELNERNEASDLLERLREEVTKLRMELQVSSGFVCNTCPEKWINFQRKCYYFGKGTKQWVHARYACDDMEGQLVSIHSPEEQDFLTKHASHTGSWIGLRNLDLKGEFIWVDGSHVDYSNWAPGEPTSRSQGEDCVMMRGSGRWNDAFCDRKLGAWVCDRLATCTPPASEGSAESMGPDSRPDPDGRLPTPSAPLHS
Sequence of UniProt P50743 (whole entry, looked up): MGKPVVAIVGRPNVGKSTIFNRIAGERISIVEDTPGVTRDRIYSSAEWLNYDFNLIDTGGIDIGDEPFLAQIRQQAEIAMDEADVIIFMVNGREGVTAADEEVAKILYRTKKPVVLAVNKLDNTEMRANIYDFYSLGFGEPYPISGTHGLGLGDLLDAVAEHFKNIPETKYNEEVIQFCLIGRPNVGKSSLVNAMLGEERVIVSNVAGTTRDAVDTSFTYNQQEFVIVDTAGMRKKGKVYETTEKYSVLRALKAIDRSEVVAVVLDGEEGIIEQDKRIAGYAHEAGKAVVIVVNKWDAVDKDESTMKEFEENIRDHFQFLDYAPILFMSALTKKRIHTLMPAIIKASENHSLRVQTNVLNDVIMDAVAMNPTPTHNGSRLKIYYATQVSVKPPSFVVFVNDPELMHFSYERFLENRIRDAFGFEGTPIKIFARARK

B1 (RbgA 1-282)
Kd (engA, Red-NHS dye label (Bacillus subtilis, UniProt P50743); MST; 1 h, pH 7.5, 25 °C, together with: GMPPNP 1 mM): 37000 nM

B2 (rpn10)
Kd (rpn12 1-250 K29A/Q76A, Oregon Green label (Schizosaccharomyces pombe, UniProt P50524); fluorescence polarization; 0-370 µM, 20 min, pH 7.4, 25 °C, NaCl 150 mM): 61100 ± 9300 nM

B3 (PLG Glu-plasminogen, mature)
Kd (APOH mature (Homo sapiens, UniProt P02749); optical biosensor): > 1000 nM

B4 (metQ mature N229A)
Kd (metN/metI E166Q/N295A (Escherichia coli); fluorescence polarisation; DDM micelles; NaCl 150 mM, substrate-free partner, ATP-bound state, together with: ATP 5 mM, EDTA 10 mM): 300 nM

{5FAM′}-DDTSRMEKVD (HSP90AA1 723-732 E730K (UniProt P07900); N-terminal 5-FAM; 5FAM′ = 5-carboxyfluorescein; sequence looked up)
Kd (STUB1 (Homo sapiens, UniProt Q9UNE7); fluorescence polarisation; peptide; pH 7.4, 25 °C, together with: 5-Fam tracer 20 nM): 6500 ± 1500 nM

RRRRRRRC / CKNYKKTEV (peptide)
Kd (DLG4 309-422 (Homo sapiens, UniProt P78352); SPR; peptide): 191 nM

B5 (Reln 1948-2662)
Kd (LRP8 ectodomain, lacking LA4-6 (Homo sapiens); SPR; pH 5.5, steady-state affinity): 410 nM

Il2rg extracellular domain (Mus musculus) (sequence not shown)
Kd (Il7r fragment (Mus musculus); SPR; monomeric and dimeric forms): 50800 nM

B6
Kd (PlxnA2 35-703 (Mus musculus, UniProt P70207); SPR; Fc fusion): 15 nM

BACH1 fragment (Homo sapiens)
Kd (FBXO22/SKP1 full length FBXO22 (Homo sapiens); BLI; 30 °C): 90 nM

PTH E19A/E22A, fluorescein at Lys13
Kd (PTH1R (Homo sapiens, UniProt Q03431); fluorescence polarisation): 82 nM and 224 nM

B7 (SPT5 residues 801-898)
Kd (pce1/rpb1 CTD four heptads, Pce1-GMP, pSer5, N-terminal BODIPY-FL (Schizosaccharomyces pombe); fluorescence polarisation): 180 ± 60 nM

CFH CCP1-4 V62I (Homo sapiens)
Kd (C3 C3b (Homo sapiens); SPR; 20 µM, 25 °C): 14000 nM

B8 (metQ residues 17-271 N229A)
Kd (metN/metI E166Q (Escherichia coli); MST; pH 8.5, 25 °C, NaCl 100 mM, together with: ATP 1 mM): 27 ± 9 nM

B9 (CR2 21-154)
Kd (FCER2 156-298 (Homo sapiens, UniProt P06734); SPR; pH 7.4, 25 °C, NaCl 150 mM): 870 nM

S100A4, S-glutathionylated, QSY 35 on amines (Homo sapiens, UniProt P26447)
Kd (SRXN1 C99S, Alexa 546 label (Homo sapiens); FRET; apparent, with EGTA): 24 nM

UGT1A9 (Homo sapiens, UniProt O60656)
Vmax (CC(C)(c1ccc(O)cc1)c1ccc(O)cc1; steady-state kinetics; pH 7.4, 37 °C): 0.00442 µmol/min/mg

SYK tandem SH2 domains
Kd (CLEC1B fragment, pY7 (Homo sapiens); SPR; equilibrium Kd): 256 nM

B10 (Fermt2 F0 1-97)
Kd (Pxn, Atto520 label (Mus musculus, UniProt Q8VI36-2); ITC): 1920 ± 628 nM

APP Aβ, β-GalNAc on Tyr10
Kd (Aβ42 (Homo sapiens, UniProt P05067); BLI): 17900 nM
